Published values of several laboratories.
Each line is one published result; not all experiments were run side by side. ± gives the spread as reported. Converted amounts (≈) assume the structure as drawn.

O=C([O-])CN1CCN(CC(=O)[O-])CCN(CC(=O)NCCc2ccc3c(c2)C2C=CCC2C(c2cc4c(cc2Br)OCO4)N3)CCN(CC(=O)[O-])CC1.[111In+3] (centres unmarked)
tissue uptake (mouse, Hec50 endometrial tumour, heart; 4 h post injection): 0.17 ± 0.02 %ID/g

CCCC[C@H](NC(=O)CNC(=O)CNC(=O)CN1CCN(CC(=O)O)CCN(CC(=O)O)CCN(CC(=O)O)CC1)C(=O)N[C@H]1CC(=O)NCCCC[C@@H](C(N)=O)NC(=O)[C@H](Cc2c[nH]c3ccccc23)NC(=O)[C@H](CCCNC(=N)N)NC(=O)[C@@H](Cc2ccccc2)NC(=O)[C@H](Cc2c[nH]cn2)NC1=O [lead-203 labelled]
intact fraction (radio-HPLC; C57 mouse, urine; intravenous, 0.74 MBq, 2 h): ~65%

NC12CNCCNCC(NCc3ccc(CNC(=O)CCCC(=O)NCc4ccc(-c5nncnn5)cc4)cc3)(CNCCNC1)CNCCNC2.[64Cu+2]
mean absorbed dose (OLINDA dosimetry; adrenals; 24 h pretargeting interval, added: huA33-TCO pretargeting): 0.0374 rad/mCi

O=C(CCCCC[N+]#[C][99Tc-5]([C]#[N+]CCCCCC(=O)N[C@H]1C(O)O[C@H](CO)[C@@H](O)[C@@H]1O)([C]#[N+]CCCCCC(=O)N[C@H]1C(O)O[C@H](CO)[C@@H](O)[C@@H]1O)([C]#[N+]CCCCCC(=O)N[C@H]1C(O)O[C@H](CO)[C@@H](O)[C@@H]1O)([C]#[N+]CCCCCC(=O)N[C@H]1C(O)O[C@H](CO)[C@@H](O)[C@@H]1O)[C]#[N+]CCCCCC(=O)N[C@H]1C(O)O[C@H](CO)[C@@H](O)[C@@H]1O)N[C@H]1C(O)O[C@H](CO)[C@@H](O)[C@@H]1O (some centres unmarked)
kidney/tumour ratio (SPECT; BALB/c nude mouse TE-1 xenograft; reference: kidney over tumour): 2.01

CCCC[C@H](NC(=O)CNC(=O)CNC(=O)CN1CCN(CC(=O)O)CCN(CC(=O)O)CCN(CC(=O)O)CC1)C(=O)N[C@H]1CC(=O)NCCCC[C@@H](C(N)=O)NC(=O)[C@H](Cc2c[nH]c3ccccc23)NC(=O)[C@H](CCCNC(=N)N)NC(=O)[C@@H](Cc2ccccc2)NC(=O)[C@H](Cc2c[nH]cn2)NC1=O [copper-64 labelled]
uptake ratio (female C57 mouse, B16/F1 melanoma; intravenous, 0.037 MBq, 2 h; reference: tumour over kidneys): 0.56

CCCC[C@H](NC(=O)CNC(=O)CNC(=O)CN1CCN(CC(=O)O)CCN(CC(=O)O)CCN(CC(=O)O)CC1)C(=O)N[C@H]1CC(=O)NCCCC[C@@H](C(N)=O)NC(=O)[C@H](Cc2c[nH]c3ccccc23)NC(=O)[C@H](CCCNC(=N)N)NC(=O)[C@@H](Cc2ccccc2)NC(=O)[C@H](Cc2c[nH]cn2)NC1=O [gallium-67 labelled]
urinary excretion (C57 mice, female, B16/F1 melanoma, urine; intravenous, 0.037 MBq, 24 h): 92.7 ± 1.09%

CCC(=O)N[C@@H](C)C(=O)OCC(=O)N[C@@H](C)C(=O)O
depolymerization half-life (water; pH 6, 37 °C): 432 h

Oc1ccc2ccccc2c1/N=N/c1ccc(/N=N/c2ccccc2)cc1
elimination half-life (Sprague-Dawley rats both sexes, whole blood; oral, 50 mg/kg): 2.39 h

CC12CC(c3ccc(S(C)(=O)=O)cc3)C3=C4CCC(=O)C=C4CCC3C1CCC2(O)C(F)(F)C(F)(F)F (centres unmarked)
AUC0-tlast (human, plasma; oral, 4 mg, geometric mean, added: itraconazole 200 mg/day): 2000 ng·h/mL

C[C@](C#N)(COc1cc(C#N)ccc1C(F)(F)F)NC(=O)c1ccc(S(=O)(=O)C(F)(F)F)cc1
metabolite formation half-life (parasitized calves, plasma; oral, 2.5 mg/kg of monepantel): 9.79 ± 4.06 h

CCCC[C@H](NC(C)=O)C(=O)N[C@H]1CC(=O)NCCCC[C@@H](C(=O)N[C@@H](C(=O)N2CCC[C@@H]2C(N)=O)C(C)C)NC(=O)[C@H](Cc2c[nH]c3ccccc23)NC(=O)[C@H](CCCN=C(N)N)NC(=O)[C@@H](Cc2ccc3ccccc3c2)NC(=O)[C@@H]2CCCN2C1=O
Tmax (Beagle dog, both sexes, plasma; subcutaneous, once daily, 2.25 mg/kg, day 28): 2.2 ± 0.5 h

C=C(c1ccc(C(=O)O)c(F)c1)c1cc2c(cc1C)C(C)(C)C=CC2(C)C
blood cholesterol (Sprague-Dawley rat, male; oral, 100 mg/kg, 12 h, sesame oil vehicle): 72 ± 11.9 mg/dL

CC(=O)[CH](C(C)=O)[Pt-2]1([S+](C)C)[O]C(C)=CC(C)=[O+]1 (centres unmarked)
creatinine (rat, blood; intravenous, 20 mg/kg, single dose): 0.45 ± 0.06 mg/dL

CCCC[C@@H]1NC(=O)[C@@H](NC(=O)[C@H](CCC(=O)O)NC(=O)CNC(=O)CN2CCN(CC(=O)O)CCN(CC(=O)O)CCN(CC(=O)O)CC2)CCCCNC(=O)C[C@@H](C(N)=O)NC(=O)[C@H](C(C)C)NC(=O)[C@@H]2CCCN2C(=O)[C@H](CCCNC(=N)N)NC(=O)CNC(=O)[C@H](Cc2c[nH]c3ccccc23)NC(=O)[C@H](CCCNC(=N)N)NC(=O)[C@@H](Cc2ccccc2)NC(=O)[C@H](Cc2c[nH]cn2)NC(=O)[C@H](CCC(=O)O)NC1=O [gallium-67 labelled]
urinary excretion (B16/F1 melanoma-bearing C57 mice, urine; intravenous, 0.037 MBq, 2 h): 81.9 ± 2.42%

CCn1c(=O)n(CCO)c(=O)c2c1nc(/C=C/c1ccc(OC)c(OC)c1)n2C
metabolite to parent Cmax ratio (healthy humans, plasma; oral, 40 mg, added: rifampin 600 mg/day): 0.138

CCCC[C@@H]1NC(=O)[C@H](CCC(=O)O)NC(=O)[C@H](CCCNC(=N)N)NC(=O)[C@H](CCC(N)=O)NC(=O)[C@](C)(NC(=O)[C@H](CC(C)C)NC(=O)[C@H](CS)NC(=O)[C@H](CCC(N)=O)NC(=O)[C@H](C)NC(=O)[C@H](CCCNC(=N)N)NC(=O)CNC(=O)[C@H](CCCCN)NC(=O)[C@H](CCC(=O)O)NC(=O)[C@H](CC(=O)O)NC(=O)[C@H](CC(C)C)NC(=O)[C@H](CC(C)C)NC(C)=O)CCCCCCC=CCCC[C@@](C)(C(=O)N[C@@H](CC(C)C)C(=O)N[C@@H](CCC(=O)O)C(=O)N[C@@H](CCC(N)=O)C(=O)N[C@@H](CCC(N)=O)C(=O)N[C@@H](CC(C)C)C(=O)N[C@H](C(=O)N[C@@H](CC(C)C)C(=O)N[C@@H](CCC(=O)O)C(=O)N[C@@H](CCCCN)C(=O)N[C@@H](CCC(=O)O)C(=O)N[C@@H](CCCCN)C(N)=O)C(C)C)NC(=O)[C@H](CCC(N)=O)NC(=O)[C@H](C(C)C)NC1=O
alpha-helicity (circular dichroism; sodium acetate buffer; 2.5 to 10 µM, pH 3.6, 20 °C): 10%

CC(C)(Sc1cc[n+]([O-])cc1-c1ccc(C#N)c2ccccc12)C(=O)OC1OC(C(=O)O)C(O)C(O)C1O (centres unmarked)
renal clearance (human, urine; oral, 15 mg, 72 h, normal renal function): 298 mL/min

OCc1[nH]nc2c1N=C(c1ccccc1Cl)c1cnc(N3CCOCC3)cc1N2
metabolite to parent ratio (human male, plasma; oral, 10 mg, 0-120 h; reference: metabolite AUC over parent AUC): 5.38%

CC(C)[C@H](NC(=O)CNC(=O)[C@H](CCC(N)=O)NC(=O)[C@H](C)N)C(=O)O
Cmax (human, both sexes, plasma; intravenous infusion, 90 mg/kg/h, 2 h infusion, geometric mean): 6780 ng/mL

O=S(=O)(c1ccccc1)N1CCCCC1
recovery (citrate buffer; 24 h, pH 2.0): 91%

O=C([O-])CN1CCN(CC(=O)[O-])CCN(C(CCC(=O)NCCCCCN(CCCC[C@H](NC(=O)N[C@@H](CCC(=O)O)C(=O)O)C(=O)O)C(=O)c2ccc(I)cc2)C(=O)O)CCN(CC(=O)[O-])CC1.[68Ga+3] (some centres unmarked)
SUVmean (PET/CT; prostate cancer patients, gluteal muscle; 60 min post-injection): 0.58 ± 0.09

O=C(O)[C@@H]1C[C@@H](O)CN1C(=O)[C@@H]1CCCN1
log beta (potentiometric titration; 40 °C, MA3 complex, added: Fe(III)): 30.9

Cc1ccc(/N=N/c2c(O)ccc3ccccc23)c(C)c1
measured concentration (extracted rat blood QC samples; 0.5 µg/L, 8 h, room temperature, short-term stability): 0.502 µg/L

NS(=O)(=O)c1ccc(-n2nc(C(F)(F)F)c(O)c2-c2ccc(F)cc2F)cc1
metabolite formation rate (substrate; male Wistar rat liver microsomes; 20 µM, pH 7.4, mean of 0-90 and 0-60 min): 3.2 pmol/min/mg

Cc1ccc(N2Cc3cc(NC(=O)N4CCN(c5ccc(F)cc5)CC4)ccc3C2=O)cc1
remaining parent compound (mouse C57BL/6, liver microsomes; 90 min): 87.3 ± 1.04%

Cn1c(=O)oc2ccc(-c3ccc(CC(C#N)NC(=O)C4CNCCCO4)c(F)c3)cc21 (centres unmarked)
subjects with TRAE (refers to: blood bilirubin increased; human; 80 mg single dose, fasted): 0%

CSCOC1C(=O)C2(C)C(OCSC)CC3OCC3(OC(C)=O)C2C(OC(=O)c2ccccc2)C2(O)CC(OC(=O)C(O)C(C=C(C)C)NC(=O)OC(C)(C)C)C(C)=C1C2(C)C (centres unmarked)
Vd (male Sprague-Dawley rat, plasma; intravenous, 4 mg/kg): 40.9 L/kg

NC(=O)c1cnc2[nH]ccc2c1NC1C2CC3CC1CC(OS(=O)(=O)O)(C3)C2 (centres unmarked)
AUC(0-t) (Japanese adults, mild hepatic impairment, plasma; oral, 150 mg single dose): 4370 ng·h/mL

CCCCCCCCCCCCCCCC(=O)N[C@@H](CCCCN)C(=O)N[C@H](C(=O)N[C@H](C(=O)N[C@@H](CCCCN)C(=O)N[C@@H](CO)C(=O)O)[C@@H](C)O)[C@@H](C)O
amount retained in epidermis (LC-MS/MS; hairless mouse, skin, Franz cell; 50 µg/cm^2 applied, 24 h): 2.8 ± 0.5 µg/cm²

C#CCOc1ccc(/C=C2\SC(=O)N(CC(=O)NCc3ccccc3)C2=O)cc1
correlation volume (inverse Kirkwood-Buff integrals; binary solvent mixture; concentration not given, 298.15 K, mole fraction x1 0.95): 6000 cm³/mol

O=C([O-])CN1CCN(CC(=O)[O-])CCN(CC(=O)NC[C@H]2CC[C@H](C(=O)N[C@H](Cc3cnc4ccccc4c3)C(=O)NCCCC[C@H](NC(=O)N[C@@H](CCC(=O)O)C(=O)O)C(=O)O)CC2)CCN(CC(=O)[O-])CC1.[64Cu+2]
absorbed dose (PET/CT, OLINDA/EXM dosimetry; healthy human volunteers, gallbladder wall): 0.052 mGy/MBq

Cc1ccc(OCC(=O)O)cc1
t1/2 (Sprague-Dawley rat, female, plasma; oral gavage, 100 mg/kg of parent drug): 2.85 h

CC(C)C[C@@H](NC(=O)[C@H](NC(=O)[C@H]1CCCN1)[C@H](C)O)C(=O)N[C@H](Cc1c[nH]cn1)C(=O)N[C@@H](C(=O)N[C@H](Cc1c[nH]cn1)C(=O)N[C@H](CC(N)=O)C(=O)N[C@H](CCCNC(=N)N)C(=O)N[C@H](CCCNC(=N)N)C(=O)N[C@H](CCCNC(=N)N)C(=O)N[C@H](CCCNC(=N)N)C(=O)N[C@H](CCCNC(=N)N)C(N)=O)[C@H](C)O
bioavailability (beagle dog, plasma; oral, 50 mg/kg, single dose): 5.5%

[11CH3]c1ccc2nc(C3CCC3)n(-c3ccc4[nH]ncc4c3)c2n1
absorbed dose (extrapolated from mouse biodistribution; human female, total body): 3.6 µSv/MBq

COc1cc(-c2nc3ccc(C(=O)NCCCN4CCN(c5ccccc5)C(=O)C4)cc3n2C2CCC2)cc(OC)c1OC
dynamic solubility: 154 µM

COC(=O)/C=C/C(=O)c1ccc(OC)cc1
recovery (LC-MS/MS; processed rat plasma, autosampler; 40 ng/mL, 12 h, 4 °C, post-preparative): 98 ± 5.12%

Cc1cc(N2CCC(C#N)(C3(C)CC3)C2=O)cc(C(=O)NCc2cc(F)cc(-c3cnn(C)c3)c2)n1 (racemic)
blood clearance (rat Sprague Dawley male; intravenous, 0.9 mg/kg, from plasma and blood-to-plasma ratio): 12 mL/min/kg

COC[C@@H](CC(C)C)NC(=O)c1ccc(CO)c(CO)c1
metabolite peak area (LC-MS; human liver microsomes; 10 µM of parent drug, 20 min, pH 7.4, added: NADPH; reference: parent drug at time zero): 0.4%

COc1cc(NC(C)=O)c2c(c1O)-c1c(OC)c(OC)cc3c1C(C2)N(C)CC3 (centres unmarked)
remaining compound (rat lung homogenate; 5 µg/mL, 4 h, room temperature, short-term storage): 92.4 ± 1.4%

Cc1nc(-c2ccc(NC(=O)c3cccs3)cc2Cl)no1
thermodynamic solubility (sodium acetate buffer; 24 h, pH 4.0, room temperature): 97.3 ± 9.5 µg/mL (≈ 304 µM)

Cc1ccc(-c2ccc(-c3cc4sccc4o3)cn2)nc1
radiative decay rate constant (TCSPC; MeOH): 0.36 ns⁻¹

Some of these lines once more:
Oc1ccc2ccccc2c1/N=N/c1ccc(/N=N/c2ccccc2)cc1
elimination half-life (Sprague-Dawley rats both sexes, whole blood; oral, 50 mg/kg): 2.39 h

CC12CC(c3ccc(S(C)(=O)=O)cc3)C3=C4CCC(=O)C=C4CCC3C1CCC2(O)C(F)(F)C(F)(F)F (centres unmarked)
AUC0-tlast (human, plasma; oral, 4 mg, geometric mean, added: itraconazole 200 mg/day): 2000 ng·h/mL

C[C@](C#N)(COc1cc(C#N)ccc1C(F)(F)F)NC(=O)c1ccc(S(=O)(=O)C(F)(F)F)cc1
metabolite formation half-life (parasitized calves, plasma; oral, 2.5 mg/kg of monepantel): 9.79 ± 4.06 h
